# Results from different studies.
# Compare with care: the assays were run in different laboratories. Several values in a cell are separate wells, animals, samples, runs or records. Numbers after ± are the reported error.
# Nuclear receptor subfamily 2 group C member 2 ligand-binding domain: Nuclear receptor subfamily 2 group C member 2, ligand-binding domain (Homo sapiens, UniProt P49116)
# Sequence of UniProt P49116 (whole entry, looked up): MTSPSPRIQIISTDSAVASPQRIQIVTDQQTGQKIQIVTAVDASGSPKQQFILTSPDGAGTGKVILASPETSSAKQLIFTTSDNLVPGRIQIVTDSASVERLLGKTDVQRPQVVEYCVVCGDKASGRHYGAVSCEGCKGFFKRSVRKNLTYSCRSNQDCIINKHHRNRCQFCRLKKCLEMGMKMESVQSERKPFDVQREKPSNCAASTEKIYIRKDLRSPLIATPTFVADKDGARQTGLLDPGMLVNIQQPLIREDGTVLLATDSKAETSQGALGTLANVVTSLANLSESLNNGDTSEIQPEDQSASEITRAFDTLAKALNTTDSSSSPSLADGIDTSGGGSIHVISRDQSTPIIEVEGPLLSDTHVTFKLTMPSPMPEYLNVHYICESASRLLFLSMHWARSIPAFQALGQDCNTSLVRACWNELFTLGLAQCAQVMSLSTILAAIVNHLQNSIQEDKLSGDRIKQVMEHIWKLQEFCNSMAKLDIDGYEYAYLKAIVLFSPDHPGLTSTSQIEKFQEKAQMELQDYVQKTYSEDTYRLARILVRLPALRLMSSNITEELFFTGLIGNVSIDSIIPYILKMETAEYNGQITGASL
# HTR1A: 5-hydroxytryptamine receptor 1A (HTR1A, Homo sapiens, UniProt P08908)
# Sequence of UniProt O14980 (whole entry, looked up): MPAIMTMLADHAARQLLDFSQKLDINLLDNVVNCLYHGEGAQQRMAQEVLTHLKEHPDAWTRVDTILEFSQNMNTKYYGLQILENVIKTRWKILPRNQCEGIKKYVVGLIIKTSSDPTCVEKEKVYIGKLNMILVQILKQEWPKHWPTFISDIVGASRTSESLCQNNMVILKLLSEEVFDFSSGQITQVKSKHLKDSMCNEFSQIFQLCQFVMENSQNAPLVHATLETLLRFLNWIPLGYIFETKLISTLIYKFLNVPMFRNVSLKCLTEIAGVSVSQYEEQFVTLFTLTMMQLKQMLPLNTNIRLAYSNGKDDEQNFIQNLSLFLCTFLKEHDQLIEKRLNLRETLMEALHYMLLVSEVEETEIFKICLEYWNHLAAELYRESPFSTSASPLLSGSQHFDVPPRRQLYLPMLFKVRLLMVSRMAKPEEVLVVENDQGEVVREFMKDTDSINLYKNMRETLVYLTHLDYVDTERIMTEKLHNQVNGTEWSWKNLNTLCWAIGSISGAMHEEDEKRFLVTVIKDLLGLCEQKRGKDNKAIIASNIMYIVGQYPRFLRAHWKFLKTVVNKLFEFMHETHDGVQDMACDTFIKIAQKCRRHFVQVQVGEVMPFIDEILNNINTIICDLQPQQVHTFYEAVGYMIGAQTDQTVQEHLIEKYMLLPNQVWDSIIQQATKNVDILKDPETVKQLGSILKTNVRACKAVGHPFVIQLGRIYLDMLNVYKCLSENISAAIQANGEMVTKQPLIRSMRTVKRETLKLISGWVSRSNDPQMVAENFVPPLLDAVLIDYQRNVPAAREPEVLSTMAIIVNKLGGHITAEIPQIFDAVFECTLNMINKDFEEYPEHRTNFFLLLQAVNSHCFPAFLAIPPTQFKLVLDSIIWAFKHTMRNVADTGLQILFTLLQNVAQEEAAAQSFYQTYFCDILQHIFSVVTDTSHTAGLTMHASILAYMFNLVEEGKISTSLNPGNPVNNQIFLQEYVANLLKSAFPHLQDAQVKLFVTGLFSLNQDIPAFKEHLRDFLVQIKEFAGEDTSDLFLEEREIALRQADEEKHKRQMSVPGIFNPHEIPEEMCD
# Sequence of UniProt P08908 (whole entry, looked up): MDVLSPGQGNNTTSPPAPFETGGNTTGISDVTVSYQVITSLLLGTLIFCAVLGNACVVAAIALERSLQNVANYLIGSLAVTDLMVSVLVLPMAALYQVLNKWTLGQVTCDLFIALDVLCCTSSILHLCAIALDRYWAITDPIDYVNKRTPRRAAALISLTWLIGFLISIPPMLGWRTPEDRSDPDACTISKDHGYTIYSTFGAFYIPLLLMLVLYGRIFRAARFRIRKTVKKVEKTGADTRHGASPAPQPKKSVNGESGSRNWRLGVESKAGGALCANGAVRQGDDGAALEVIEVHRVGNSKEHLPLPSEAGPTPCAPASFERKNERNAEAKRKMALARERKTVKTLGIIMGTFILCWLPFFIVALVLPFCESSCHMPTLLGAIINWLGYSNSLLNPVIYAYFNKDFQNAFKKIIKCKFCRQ
# Sequence of UniProt P51575 (whole entry, unmodified, looked up): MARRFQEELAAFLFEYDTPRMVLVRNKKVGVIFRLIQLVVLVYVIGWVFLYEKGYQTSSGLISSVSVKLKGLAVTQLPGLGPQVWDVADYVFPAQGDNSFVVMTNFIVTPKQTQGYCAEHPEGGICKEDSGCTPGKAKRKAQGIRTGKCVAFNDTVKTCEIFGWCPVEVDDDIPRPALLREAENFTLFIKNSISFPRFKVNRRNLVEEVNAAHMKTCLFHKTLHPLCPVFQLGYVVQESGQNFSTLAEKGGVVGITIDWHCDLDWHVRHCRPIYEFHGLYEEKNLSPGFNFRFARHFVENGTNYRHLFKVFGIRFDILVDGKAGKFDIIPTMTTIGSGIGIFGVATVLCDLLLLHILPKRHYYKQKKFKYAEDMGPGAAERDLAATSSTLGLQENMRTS
# Sequence of UniProt Q62351 (whole entry, looked up): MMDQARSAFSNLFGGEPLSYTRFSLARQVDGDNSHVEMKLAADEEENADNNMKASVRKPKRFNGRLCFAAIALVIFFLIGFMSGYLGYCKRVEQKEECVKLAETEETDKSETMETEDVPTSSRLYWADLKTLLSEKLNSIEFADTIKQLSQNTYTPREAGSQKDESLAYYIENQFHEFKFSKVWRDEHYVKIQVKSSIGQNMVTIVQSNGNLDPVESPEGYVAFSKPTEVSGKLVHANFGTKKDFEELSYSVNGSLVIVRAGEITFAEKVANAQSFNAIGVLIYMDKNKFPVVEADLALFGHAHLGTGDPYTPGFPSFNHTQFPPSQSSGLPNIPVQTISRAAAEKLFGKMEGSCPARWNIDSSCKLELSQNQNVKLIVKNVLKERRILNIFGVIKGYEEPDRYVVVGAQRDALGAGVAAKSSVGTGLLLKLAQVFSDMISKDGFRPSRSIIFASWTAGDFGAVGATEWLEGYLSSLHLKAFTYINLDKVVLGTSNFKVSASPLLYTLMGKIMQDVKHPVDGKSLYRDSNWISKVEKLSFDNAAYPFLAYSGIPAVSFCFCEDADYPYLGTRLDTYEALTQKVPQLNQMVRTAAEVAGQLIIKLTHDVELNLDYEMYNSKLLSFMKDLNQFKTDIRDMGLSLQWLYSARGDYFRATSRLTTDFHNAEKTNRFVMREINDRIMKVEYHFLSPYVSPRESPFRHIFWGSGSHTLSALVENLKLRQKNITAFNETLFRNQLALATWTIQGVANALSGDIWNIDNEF
# Sequence of UniProt Q12791 (whole entry, looked up): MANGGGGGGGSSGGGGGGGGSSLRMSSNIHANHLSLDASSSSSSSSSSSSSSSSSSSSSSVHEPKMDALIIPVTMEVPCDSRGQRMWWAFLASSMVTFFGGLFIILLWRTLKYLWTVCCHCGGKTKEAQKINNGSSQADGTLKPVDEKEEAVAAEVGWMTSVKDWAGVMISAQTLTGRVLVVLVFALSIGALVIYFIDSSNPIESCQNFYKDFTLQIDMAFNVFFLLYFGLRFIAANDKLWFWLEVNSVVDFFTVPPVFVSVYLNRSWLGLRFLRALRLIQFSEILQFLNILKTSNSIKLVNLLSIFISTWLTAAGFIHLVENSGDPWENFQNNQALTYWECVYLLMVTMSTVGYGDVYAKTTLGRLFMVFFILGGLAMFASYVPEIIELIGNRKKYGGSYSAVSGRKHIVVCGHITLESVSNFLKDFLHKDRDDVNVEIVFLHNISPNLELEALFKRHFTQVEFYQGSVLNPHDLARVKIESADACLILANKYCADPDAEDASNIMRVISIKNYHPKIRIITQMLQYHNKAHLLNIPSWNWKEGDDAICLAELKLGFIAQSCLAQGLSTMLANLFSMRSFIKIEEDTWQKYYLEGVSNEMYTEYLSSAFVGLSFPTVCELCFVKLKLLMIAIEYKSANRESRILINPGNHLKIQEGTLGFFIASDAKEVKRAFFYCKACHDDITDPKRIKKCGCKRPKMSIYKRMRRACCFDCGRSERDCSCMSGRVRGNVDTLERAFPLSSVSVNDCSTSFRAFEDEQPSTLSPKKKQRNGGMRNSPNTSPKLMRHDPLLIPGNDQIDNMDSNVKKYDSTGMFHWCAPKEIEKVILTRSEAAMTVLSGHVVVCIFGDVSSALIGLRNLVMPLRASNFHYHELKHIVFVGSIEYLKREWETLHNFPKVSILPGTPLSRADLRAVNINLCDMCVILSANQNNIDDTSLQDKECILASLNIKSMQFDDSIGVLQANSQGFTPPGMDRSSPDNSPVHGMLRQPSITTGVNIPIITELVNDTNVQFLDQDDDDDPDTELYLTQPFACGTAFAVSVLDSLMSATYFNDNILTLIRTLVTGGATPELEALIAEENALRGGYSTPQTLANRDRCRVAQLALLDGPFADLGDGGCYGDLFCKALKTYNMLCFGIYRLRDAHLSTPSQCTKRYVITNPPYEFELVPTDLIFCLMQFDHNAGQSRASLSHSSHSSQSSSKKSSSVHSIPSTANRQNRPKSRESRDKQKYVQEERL
# Sequence of UniProt P04746 (whole entry, looked up): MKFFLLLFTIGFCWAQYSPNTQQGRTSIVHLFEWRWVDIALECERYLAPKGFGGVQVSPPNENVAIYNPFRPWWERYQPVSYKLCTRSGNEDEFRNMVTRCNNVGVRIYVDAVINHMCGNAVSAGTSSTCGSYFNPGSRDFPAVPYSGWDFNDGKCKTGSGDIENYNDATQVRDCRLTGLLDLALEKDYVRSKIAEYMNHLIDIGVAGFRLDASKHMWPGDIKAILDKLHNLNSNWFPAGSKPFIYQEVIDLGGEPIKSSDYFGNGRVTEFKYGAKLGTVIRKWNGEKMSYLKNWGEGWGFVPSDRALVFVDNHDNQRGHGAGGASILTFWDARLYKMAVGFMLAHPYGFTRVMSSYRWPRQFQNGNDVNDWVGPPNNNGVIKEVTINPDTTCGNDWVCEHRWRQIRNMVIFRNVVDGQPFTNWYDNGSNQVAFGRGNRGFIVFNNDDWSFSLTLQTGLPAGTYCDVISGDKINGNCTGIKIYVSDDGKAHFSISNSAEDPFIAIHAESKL
SMILES,target,assay,test system,conditions,how to read,quantity,result
c1cncc(OC[C@H]2CN(CCN3CCc4ccccc43)CCO2)c1,"D(1B) dopamine receptor (DRD5, Homo sapiens, UniProt P21918)",radioligand binding,,"concentration not given, added: [3H]SCH23390",,inhibition,12.7%
Nc1ncnc2c1ncn2[C@@H]1O[C@H](COP(=O)(O)CP(=O)(O)OP(=O)(O)O)[C@@H](O)[C@H]1O,"P2X purinoceptor 1 (P2RX1, Homo sapiens, UniProt P51575, K136W)",saturation binding,HEK293,1 nM,,specific binding,77 CCPM and 93 CCPM
CC[S+]([O-])c1nc(-c2ccccc2)cc(C(F)(F)F)n1 (stereo not drawn),"Exportin-1 (XPO1, Homo sapiens, UniProt O14980)","nuclear export, high content imaging",HeLa Kyoto reporter,"0.158 µM, 2 h",,cells with nuclear reporter,1.68% and 1.79% and 1.83%
Nc1ccn([C@@H]2O[C@H](CO)[C@@H](O)[C@H]2O)c(=O)n1,Nuclear receptor subfamily 2 group C member 2 ligand-binding domain,SPR imaging,,600 nM,,koff,1.92e-07 s⁻¹
O=C(CCCN1CCCN(c2ccc(Cl)cc2)CC1)c1ccc(F)cc1,HTR1A,"cAMP level, antagonist, GloSensor cAMP",,,,Emax,6.5%
Cc1ccccc1C1CC(=O)c2c(C)nc(N)nc2C1 (stereo not drawn),"DDB1- and CUL4-associated factor 1 (DCAF1, Homo sapiens, UniProt Q9Y4B6)","binding, affinity selection mass spectrometry",,,baseline: other proteins in batch,fold enrichment,0.895
O=C1OC(c2ccccc2)=N/C1=C\c1ccc(O)c(O)c1,"Pancreatic alpha-amylase (Homo sapiens, UniProt P04746)","inhibitor, Lineweaver-Burk",,"300 ppm, added: starch substrate",,Km,569 µM
Cc1nc(CSc2nc(SCc3ccc(C(C)C)cc3)nc(=O)[nH]2)cs1,"DNA topoisomerase 2-alpha (TOP2A, Homo sapiens, UniProt P11388)",decatenation,,7.8 µM,,mean decatenated DNA,50.7%
CC[C@@H](C)[C@@H](NC(=O)[C@@H](Cc1ccc(O)cc1)NC(=O)[C@H]1CCCN1C(=O)[C@@H](CCCNC(=N)N)NC(=O)[C@H](N)Cc1c[nH]cn1)C(=O)N[C@H](C)C(=O)N[C@H](Cc1c[nH]cn1)C(=O)N[C@H](CCCNC(=N)N)C(=O)N[C@@H](C(=O)N[C@H](Cc1ccc(O)cc1)C(=O)N[C@H](CO)C(=O)N[C@H](Cc1ccccc1)C(N)=O)C(C)C,"Transferrin receptor protein 1 (Tfrc, Mus musculus, UniProt Q62351)",flow cytometry,RAW264.7,"6 h, pH 7.4, unit not given",baseline: 0 h,surface expression,0.983 and 1.02
C=CC(=O)N1CCC(COCC(=O)N2CCN(c3nc(-c4cnc(N)nc4C(F)F)nc(N4CCOC[C@@H]4C)n3)CC2)CC1,"Serine/threonine-protein kinase MARK2 (MARK2, Homo sapiens, UniProt Q7KZI7)",KINOMEscan,,1 µM,,remaining binding,77%
N#Cc1ccc2c(-c3ccncc3)c(-c3ccc(F)cc3)nn2c1,"Serine/threonine-protein kinase CBK1 (CBK1, Candida albicans, UniProt Q5AP53)","kinase binding, competitor, MIB/MS competition, refers to: CBK1",Candida albicans cell lysate,100 nM,baseline: DMSO,log2 fold change,0.547
CN(C)C(=O)C(CCN1CCC(O)(c2ccc(Cl)cc2)CC1)(c1ccccc1)c1ccccc1,"Calcium-activated potassium channel subunit alpha-1, with LRRC26 γ1 subunit (KCNMA1, Homo sapiens, UniProt Q12791)","BK current, inside-out patch clamp",excised membrane patch,"3 µM, γ1 coexpressed, individual fits, added: nominally 0 Ca2+ cytosolic",,effective gating valence,1.11 ± 0.12 elementary charges
CC1=C(/C=C/C(C)=C/C=C/C(C)=C/C=C/C=C(C)/C=C/C=C(C)/C=C/C2=C(C)CCCC2(C)C)C(C)(C)CCC1,"Beta-lactoglobulin (LGB, Bos taurus, UniProt P02754)",fluorescence quenching,,"concentration not given, 298 K",,number of binding sites,1.49
CCCC[C@H](NC(=O)[C@H](C)c1c(C)[nH]c2ccc(O)cc12)c1ncc(-c2cc3ccccc3nc2OC)[nH]1,HTR1A,,,,,Hill coefficient,1
NCCCCCC(=O)O,Nuclear receptor subfamily 2 group C member 2 ligand-binding domain,SPR imaging,,600 nM,,koff,2.39e-05 s⁻¹
